Assay results pooled from the literature.
Numbered parts are unrelated; each lists some results of a single study. Positions count from the first letter of the parent shown.

Set 1 — method: DHFR PCA, deep sequencing; matrix: yeast; with: (+)-ABA 200 µM; relative to: wild-type fitted maximum; direction: higher = stronger binding
Target: ABI1, truncated, D143A, DHFR fusion (Arabidopsis thaliana)
Setting: methotrexate growth selection, single substitutions
Starting sequence: PYL1, truncated, DHFR fusion (Arabidopsis thaliana); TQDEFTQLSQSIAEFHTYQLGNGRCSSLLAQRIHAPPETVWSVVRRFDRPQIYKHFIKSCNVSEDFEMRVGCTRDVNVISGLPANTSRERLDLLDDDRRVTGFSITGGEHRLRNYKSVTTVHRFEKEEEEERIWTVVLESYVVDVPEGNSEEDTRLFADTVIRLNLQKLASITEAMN; partner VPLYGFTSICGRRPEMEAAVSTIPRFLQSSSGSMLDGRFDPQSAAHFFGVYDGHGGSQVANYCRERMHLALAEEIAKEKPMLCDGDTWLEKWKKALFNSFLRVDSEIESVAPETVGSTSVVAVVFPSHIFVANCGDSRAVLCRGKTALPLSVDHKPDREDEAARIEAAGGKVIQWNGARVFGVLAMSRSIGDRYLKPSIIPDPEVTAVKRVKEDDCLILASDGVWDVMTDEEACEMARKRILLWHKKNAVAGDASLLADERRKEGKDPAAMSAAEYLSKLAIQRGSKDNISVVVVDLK
For `D65C`, “relative binding score” read 96.4%.
`S171K`: “relative binding score” 101%.
For `A175M`, “relative binding score” read 95.9%.
For `E89C`, “relative binding score” read -5.37%.
`R46G` — result for “relative binding score”: 74.1%.
For `L8G`, “relative binding score” read 55.7%.
`G71V` — result for “relative binding score”: -6.2%.
`Y53F` — result for “relative binding score”: 91.1%.
`T119A` — result for “relative binding score”: 44.7%.
For `V137Y`, “relative binding score” read -14.4%.
`T17V`: “relative binding score” 84.2%.
`E130Y`: “relative binding score” 95.3%.
`S140R` — result for “relative binding score”: 4%.
`K58V`: “relative binding score” 80.8%.
`R99N` — result for “relative binding score”: 97%.
`K54S` — result for “relative binding score”: 5.29%.

Set 2 — target: CCNB2, cyclin fold, Cln2 fusion (human); method: yeast growth competition, sequencing; matrix: yeast; setting: weak parent motif; relative to: not given; direction: higher = stronger binding
Starting sequence: DOT1L docking peptide (human); SEAKRRIVFTITT; partner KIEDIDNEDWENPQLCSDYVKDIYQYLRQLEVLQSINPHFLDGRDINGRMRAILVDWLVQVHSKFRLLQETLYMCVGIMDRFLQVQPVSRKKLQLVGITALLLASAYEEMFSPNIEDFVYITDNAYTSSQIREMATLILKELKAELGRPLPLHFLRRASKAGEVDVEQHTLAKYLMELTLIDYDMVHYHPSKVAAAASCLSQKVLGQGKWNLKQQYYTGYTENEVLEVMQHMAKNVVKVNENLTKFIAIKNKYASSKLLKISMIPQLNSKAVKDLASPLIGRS
`SEAKARIVFTITT [R5A]`: “normalised enrichment score” -0.0478.
`SEAKRRIVFTATT [I11A]` — result for “normalised enrichment score”: -0.0884.
Under “normalised enrichment score”, `SEAKRRIVFTITA [T13A]` is recorded as 0.174.
Under “normalised enrichment score”, `SEAKRAIVFTITT [R6A]` is recorded as -0.0166.
For `SEAKRRIAFTITT [V8A]`, “normalised enrichment score” read 0.325.
Under “normalised enrichment score”, `SAAKRRIVFTITT [E2A]` is recorded as 0.345.

Set 3 — method: universal PBM; form: double-stranded DNA, one strand shown; matrix: in vitro; tested at: not given; direction: higher = stronger binding
Target: Sal-like protein 4, full length isoform B (SALL4, Homo sapiens, UniProt Q9UJQ4-2, residues 1-616)
Setting: 8-mer, flanks averaged, mean of replicates
Residues (chain): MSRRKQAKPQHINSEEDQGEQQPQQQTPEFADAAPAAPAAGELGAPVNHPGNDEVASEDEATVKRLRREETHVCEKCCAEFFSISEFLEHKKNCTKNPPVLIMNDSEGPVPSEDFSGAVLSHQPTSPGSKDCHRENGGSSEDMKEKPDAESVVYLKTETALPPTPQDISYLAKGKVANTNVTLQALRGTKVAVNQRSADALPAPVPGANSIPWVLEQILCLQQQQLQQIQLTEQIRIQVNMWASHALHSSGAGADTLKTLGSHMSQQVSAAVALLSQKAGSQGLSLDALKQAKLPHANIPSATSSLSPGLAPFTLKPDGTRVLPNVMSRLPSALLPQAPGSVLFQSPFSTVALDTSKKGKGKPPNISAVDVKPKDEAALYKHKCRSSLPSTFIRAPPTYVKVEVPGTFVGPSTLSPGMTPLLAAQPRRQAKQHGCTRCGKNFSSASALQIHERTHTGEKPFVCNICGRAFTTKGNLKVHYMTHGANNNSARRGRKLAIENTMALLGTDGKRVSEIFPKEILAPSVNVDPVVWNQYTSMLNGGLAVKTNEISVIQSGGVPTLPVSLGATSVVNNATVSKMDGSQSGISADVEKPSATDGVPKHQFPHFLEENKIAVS
With `AACTGAGA` the E-score was 0.00111.
`GCTAAACC` gave an E-score of -0.271.
`ATACTGAC` gave an E-score of 0.149.
With `GATCTACA` the E-score was 0.146.
`GACGCTAC` gave an E-score of -0.129.
`AGGGAGGG` gave an E-score of -0.274.
For `AGGTACGG`, the E-score was -0.291.
The E-score of `ACTTTTTG` is reported as 0.0875.
`CATGTGCC` gave an E-score of -0.0533.
`AGAGAGAG` gave an E-score of -0.0947.
`CATGGTGC` gave an E-score of -0.108.
With `AGACAACT` the E-score was 0.0845.
`CCCGTCGG` gave an E-score of -0.332.
With `GTTGCGCA` the E-score was -0.167.
With `CTGAGTGA` the E-score was -0.0923.
`ATCAGGCG` has an E-score of -0.226.
`GACCCCAA` gave an E-score of -0.142.
`TCTGGCCA` has an E-score of -0.0153.
`CGTAATTA` gave an E-score of 0.331.
`CGCACTAG` has an E-score of -0.188.
`GAATTATC` has an E-score of 0.268.
With `ACACGCCG` the E-score was -0.216.

Other studies, line by line
`PhoQ, residues 284 288 289 292 302 303 ASASEQ` has a fold induction of 6.8 (PhoP, residues 12 14 15 18 19 NQGLL (Escherichia coli, UniProt P23836); Sort-seq, refers to: YFP reporter; E. coli; PhoQ-PhoP variant library, with: 10 µM Mg2+; relative to: high Mg2+ state, higher = stronger signaling).

A few entries again (set 3):
`TCTGGCCA` has an E-score of -0.0153.
`CGTAATTA` gave an E-score of 0.331.
`CGCACTAG` has an E-score of -0.188.
`GAATTATC` has an E-score of 0.268.
